# Results collected from several papers.
# Each line is one published result; not all experiments were run side by side. ± marks the error that the study gave.
# Cell line: MCF7
SMILES,assay,system,conditions,IC50
CC(=O)OC[C@H]1O[C@@H](Sc2nnc(-c3cc4ccccc4[nH]3)n2-c2ccc(Cl)cc2)[C@H](OC(C)=O)[C@@H](OC(C)=O)[C@@H]1OC(C)=O,"cell growth or viability, MTT",,,19.6 µM
CC1=NN(C2=NC(=O)CS2)C(c2ccccc2)C1 (stereo not shown),"cell growth or viability, LDH",,48 h,8.3 µM
C/C(=N\N=c1/[nH]c(-c2ccccc2)cs1)c1c(O)c2ccccc2oc1=O,"cell growth or viability, MTT",,48 h,34.8 µM
COc1cc(OC)c(/C=C/C(=O)c2c(OC)cc(OC)cc2OC)c(OC)c1,"cell growth or viability, MTT",,48 h,> 100 µM
COc1ccc2cc3[n+](cc2c1OCc1cn(Cc2cccc(Cl)c2)nn1)CCc1cc2c(cc1-3)OCO2,"cell growth or viability, MTT",,,66.1 µM
NS(=O)(=O)c1ccc(/N=N/c2ccc(O)c(/C=N/CCc3c[nH]c4ccccc34)c2)cc1,"cell growth or viability, MTT",,72 h,5.89 µM
COc1cc(C2COc3cc(O)cc(O)c3C2=NN)c(OC)cc1O (stereo not shown),"cell growth or viability, MTT",,72 h,166 µM
C=C(C)[C@@H](O)[C@H](O)C[C@H](C)[C@@H]1CC[C@]23C[C@]12CC[C@@H]1[C@@]2(C)CC[C@@H](O)C(C)(C)[C@@H]2C[C@@H](OC(C)=O)[C@]13C,"cell growth or viability, MTT",,,> 10 µM
CSc1nc(Nc2cccc(/C(C)=N/NC(=O)c3ccc([N+](=O)[O-])cc3)c2)c(C#N)c(-c2ccccc2)n1,"cell growth or viability, MTT",,48 h,10.3 µM
COc1cc(-c2ccc(C(=O)N/N=C/c3ccc(N(C)C)cc3)c(C)n2)cc(OC)c1OC,"cell growth or viability, MTT",,,50.1 µM
CCOc1cccc2c1[O][Pt-2]1([Cl])[N+](=C2)CC[NH+]1c1ccccc1 (stereo not shown),"cell growth or viability, MTT",,,39 µM
C#Cc1cccc(Nc2ncnc3cc(OCCOC)c(OCCOC)cc23)c1,"cell growth or viability, trypan blue",,,> 20 µM
COc1cccc2cc(C(=O)NNc3nc(-c4ccccc4)cs3)c(=O)oc12,"cell growth or viability, SRB",,72 h,187 µM
C[C@@H]1CC[C@@H]([C@@](O)(CNCc2ccc(F)cc2)COCc2ccc(F)cc2)[C@H](OCc2ccc(F)cc2)C1,"cell growth or viability, MTT",,72 h,0.91 µM
CCCCCCCCOc1c(O)cc(C(=O)O[C@@H]2Cc3c(O)cc(O)cc3O[C@@H]2c2cc(O)c(O)c(O)c2)cc1O,"cell growth or viability, CCK-8",,24 h,156 µM
O=C(NCCCCCCCCNc1n[n+]([O-])c2ccccc2[n+]1[O-])C(F)(F)F,"cytotoxicity, MTT",10% FBS medium,"6 h + 18 h, hypoxia 3% O2",32.8 ± 6.4 µM
CCCCCCCCC=CCCCCCCCCn1c(-c2cccnc2)nc(-c2ccc(C)cc2)c1-c1ccc(C)cc1,"cell growth or viability, SRB",,48 h,> 100 µM
COc1ccc2cc3[n+](cc2c1OCc1cn(Cc2ccc(Cl)cc2)nn1)CCc1cc2c(cc1-3)OCO2,"cell growth or viability, MTT",,,45.9 µM
CCCCCCCCCCn1c(-c2cccnc2)nc(-c2ccc(C)cc2)c1-c1ccc(C)cc1,"cell growth or viability, SRB",,24 h,> 100 µM
Cc1c(C(=O)NNC(=S)Nc2ccc(Cl)cc2)nnn1Cc1nc2ccccc2[nH]1,,,48 h,6.81 ± 0.4 µM
NS(=O)(=O)c1ccc(/N=N/c2ccc(O)c(/C=N/c3cccc(O)c3)c2)cc1,"cell growth or viability, MTT",,72 h,6.69 µM
c1ccc(-c2cc(-c3ccc(-n4cc(-c5ccc6sc7ccccc7c6c5)nn4)cc3)cc(-c3ccccn3)n2)nc1,"cell growth or viability, MTS",,72 h,1.73 µM
N#C[CH2][Pd]1[O]c2ccc(Br)cc2C=Nc2cccnc2[N]1Cc1ccccc1,"cell growth or viability, MTT",,48 h,24.4 µM
CNC(=O)c1c(C)oc2cc(Oc3ncnc4cc(OC)c(OCCCCCCC(=O)NO)cc34)ccc12,"cell growth or viability, CCK-8",,48 h,17.9 µM
CCOC(=O)C/C(C)=N/NC(=O)c1nc2ccccc2n(C)c1=O,"cell growth or viability, MTT",,48 h,10.5 µM
CCCN1CCN(CC(=O)N2CCN(c3cc(C)nc4ncnn34)CC2)CC1,"cell growth or viability, MTT",,,53.9 µM
CC(=NN=c1sc(C(=O)c2ccccc2)nn1-c1ccccc1)c1ccc(S(=O)(=O)N2CCC(C)CC2)cc1,"cell growth or viability, MTT",,,4.29 µM
CCN1CCC2(CC1)C/C(=N\NC(=O)Nc1ccc(C)cc1)c1ccccc1O2,"cell growth or viability, MTT",,48 h,19 µM
Cc1cc(-c2ccccc2)c2ccc3c(-c4ccccc4)cc(C)[n+]4c3c2[n+]1[Re-2]4(=[C]=O)(=[C]=O)(=[C]=O)[O]C(=O)c1cccnc1,"cell growth or viability, resazurin",,72 h,1.33 µM
O=C(NCCCCCNc1n[n+]([O-])c2ccccc2[n+]1[O-])C(F)(F)F,"cytotoxicity, MTT",,"24 h, normoxia",> 111 µM
C[C@@H]1O[C@@H](OC(=O)/C=C/c2ccc(O)cc2)[C@H](OC(=O)/C=C/c2ccc(O)cc2)[C@H](O)[C@H]1O,"cell growth or viability, MTT",,"48 h, serum-free",4.95 µM
CSc1nc(Nc2ccc(/C(C)=N/NC(=O)c3ccc([N+](=O)[O-])cc3)cc2)c(C#N)c(-c2ccccc2)n1,"cell growth or viability, MTT",,48 h,14.3 µM
COc1ccc(CS(=O)(=O)c2ccc3ccccc3c2)cc1NCC(=O)O,"cell growth or viability, MTS",,48 h,0.182 µM
CCCCCCCCCCCCCCCC(=O)Oc1ccc(CO)cc1OC(C)=O,"cell viability, MTT",,"48 h, serum-free medium",4.1 ± 0.5 µg/mL
CC(=O)Oc1ccc(Br)cc1-c1cnc2ccccc2n1,"cell growth or viability, MTT",,48 h,20.8 µM
COc1ccc2c(c1)OCc1c-2oc2cc3c(cc12)OCO3,"cell growth or viability, MTT",,72 h,21.1 µM
N=C(N)NCCC[C@H](N)C(=O)NC(CC(=O)N[C@@H](Cc1ccccc1)C(=O)N[C@@H](CC(=O)O)C(=O)O)c1ccc2ccccc2c1 (stereo partly shown),"cell growth or viability, ATP luminescence",,72 h,45 µM
Cc1c(C)c(C)[c-](C)c1C.Cc1ccnc(-c2[c-]cccc2)c1.[Cl-].[Ir+3],SRB,,"24 h, 72 h recovery",3.7 ± 0.1 µM
CC(=O)[O][Ag]=[c]1n(C)ccn1CC(O)c1ccccc1 (stereo not shown),"cell growth or viability, MTT",,72 h,18.3 µM
Fc1ccc(-c2cn(CSc3ccccc3)nn2)c(F)c1,"cell growth or viability, MTS",,72 h,29.8 µM
CCCCn1cc(C(=O)O)c(=O)c2cc(F)c(Nc3ccc(OC)cc3)c(N)c21,"cell growth or viability, SRB",,72 h,6.45 µg/mL
O=C(Cc1ccccc1)NC(=S)n1c(-c2ccccc2)nc2ccccc21,"cell growth or viability, MTT",,48 h,8.32 µM
C=C[C@H](OC(C)=O)c1ccc(OC(C)=O)cc1,"cell growth or viability, MTT",,24 h,30 µM
COC(=O)C1CN1S(=O)(=O)c1ccc2c(C=O)c(N(C)C)ccc2c1 (stereo not shown),"cell growth or viability, MTT",,48 h,20 µM
CCC(C(=O)O)C1CCC(C)C(C(C)C(O)C(C)C(=O)C(CC)C2OC3(C=CC(NCc4cn(C56CC7CC(CC(C7)C5)C6)nn4)C4(CCC(C)(C5CCC(O)(CC)C(C)O5)O4)O3)C(C)CC2C)O1 (stereo not shown),"cell growth or viability, resazurin",,72 h,0.1 µM
CCCc1cc(O)nc(SCCOC(=O)[C@]2(C)CCC[C@]3(C)c4ccc(C(C)C)cc4CCC23)n1 (stereo partly shown),"cell growth or viability, MTT",,48 h,7 µM
CCS(=O)(=O)Oc1cc(/C=N/NC(=O)c2nc3ccccc3s2)ccc1OC,"cell growth or viability, MTT",,48 h,78.8 µM
CN1CCC2(CC1)C/C(=N\NC(=O)Nc1ccccc1)c1ccccc1O2,"cell growth or viability, MTT",,48 h,1.67 µM
C#CCOCC1=C(C(=O)OCC)C(c2cccc(Cl)c2)N2C=CSC2=N1 (stereo not shown),"cell growth or viability, MTT",,,62.6 µM
COc1c(O)c(Br)c2oc3c(Br)c(O)c(CCC(C)C)c(O)c3c(=O)c2c1CCC(C)C,cell growth or viability,,48 h,19.7 µM
CC[C@@]1(C)CC[C@H]2[C@@](C)(CC[C@@]3(C)[C@@H]4CC(C)(C)CC[C@]4(C)CC[C@]23C)[C@@H]1CCC(=O)O,"cell growth or viability, SRB",,,27 µM
CC1(C)CC2C3=CCC4C5(C)CCC(O)C(C)(CO)C5CCC4(C)C3(C)CC(O)C2(CO)C(O)C1O (stereo not shown),"cell growth or viability, CCK-8",,48 h,> 80 µM
CS/C(=N/N=C(\C)c1ccc(S(=O)(=O)N2CCC(C)CC2)cc1)SCc1ccccc1,"cell growth or viability, MTT",,,78.1 µM
CCN(CC)CCO/N=C1/C=C2CCC3C(CC[C@]4(C)/C(=C/c5ccccn5)CCC34)[C@@]2(C)CC1 (stereo partly shown),"cell growth or viability, MTT",,72 h,> 100 µM
Cc1ccc(/C=N/NC(=O)c2cc3cc(Nc4nccc(-c5cccnc5)n4)ccc3[nH]2)cc1,"cell growth or viability, MTT",,48 h,2.7 µM

# Excerpt of the above:
SMILES,assay,system,conditions,IC50
C[C@@H]1CC[C@@H]([C@@](O)(CNCc2ccc(F)cc2)COCc2ccc(F)cc2)[C@H](OCc2ccc(F)cc2)C1,"cell growth or viability, MTT",,72 h,0.91 µM
CCCCCCCCOc1c(O)cc(C(=O)O[C@@H]2Cc3c(O)cc(O)cc3O[C@@H]2c2cc(O)c(O)c(O)c2)cc1O,"cell growth or viability, CCK-8",,24 h,156 µM
O=C(NCCCCCCCCNc1n[n+]([O-])c2ccccc2[n+]1[O-])C(F)(F)F,"cytotoxicity, MTT",10% FBS medium,"6 h + 18 h, hypoxia 3% O2",32.8 ± 6.4 µM
CCCCCCCCC=CCCCCCCCCn1c(-c2cccnc2)nc(-c2ccc(C)cc2)c1-c1ccc(C)cc1,"cell growth or viability, SRB",,48 h,> 100 µM
COc1ccc2cc3[n+](cc2c1OCc1cn(Cc2ccc(Cl)cc2)nn1)CCc1cc2c(cc1-3)OCO2,"cell growth or viability, MTT",,,45.9 µM
CCCCCCCCCCn1c(-c2cccnc2)nc(-c2ccc(C)cc2)c1-c1ccc(C)cc1,"cell growth or viability, SRB",,24 h,> 100 µM
Cc1c(C(=O)NNC(=S)Nc2ccc(Cl)cc2)nnn1Cc1nc2ccccc2[nH]1,,,48 h,6.81 ± 0.4 µM
NS(=O)(=O)c1ccc(/N=N/c2ccc(O)c(/C=N/c3cccc(O)c3)c2)cc1,"cell growth or viability, MTT",,72 h,6.69 µM
c1ccc(-c2cc(-c3ccc(-n4cc(-c5ccc6sc7ccccc7c6c5)nn4)cc3)cc(-c3ccccn3)n2)nc1,"cell growth or viability, MTS",,72 h,1.73 µM
